# Published values of several laboratories.
SMILES,test,system,conditions,endpoint,value
O=C(Nc1cnn2ccc(N3CCC[C@@H]3c3cc(F)ccc3F)nc12)N1CC[C@H](O)C1,,porcine brain polar lipids,"10 µM, pH 7.4, 0.2% DMSO",unbound fraction in brain,0.465
O=C1N[C@H](c2cncc(C#Cc3ccccc3)c2)[C@@H](c2ccccc2Cl)O1,,rat plasma,,unbound fraction,< 0.01
CN1CCN(c2ccc(C(=O)Nc3n[nH]c4ccc(Cc5cc(F)cc(F)c5)cc34)c(NC3CCOCC3)c2)CC1,,porcine brain polar lipids,"10 µM, pH 7.4, 0.2% DMSO",unbound fraction in brain,0.0005
O=C1CC[C@H](N2Cc3cc(N4CCN(CC5CCN(c6ccc([C@@H]7c8ccc(O)cc8CC[C@@H]7c7ccccc7)cc6)CC5)CC4)ccc3C2=O)C(=O)N1,rapid equilibrium dialysis,human blood,"2.5 µM, 6 h",unbound fraction in blood,0.052
N#C[C@@]1(c2ccc3c(N)ncnn23)O[C@H](CO)[C@@H](O)[C@H]1O,,dog plasma,1-100 µM,unbound fraction in plasma,0.0768
COc1ccc2c(c1)CN(C(=O)CCN1CCC(Cc3ccccc3)CC1)CC[S@@+]2[O-],,"healthy male volunteers, plasma","intravenous, 0.6 mg/kg",unbound Cmax,600 nM
Cc1cc(C)c(CNC(=O)c2cc(Cl)c3c(c2C)O[C@@](C)([C@H]2CC[C@H](N(C)C)CC2)O3)c(=O)[nH]1,ultracentrifugation,"glycoprotein, alpha-1-acid, 0.1%",10000 ng/mL,unbound fraction,0.44
CCO[C@H]1CCN(Cc2c(OC)cc(C)c3[nH]ccc23)[C@H](c2ccc(C(=O)O)cc2)C1,,healthy controls,"oral, 200 mg, geometric mean",unbound AUC(0-12),3130 ng·h/mL

# Repeated from above:
SMILES,test,system,conditions,endpoint,value
COc1ccc2c(c1)CN(C(=O)CCN1CCC(Cc3ccccc3)CC1)CC[S@@+]2[O-],,"healthy male volunteers, plasma","intravenous, 0.6 mg/kg",unbound Cmax,600 nM
